Assay results gathered from unrelated publications.
Numbered parts are unrelated; each lists some results of a single study.

Block 1 — technique: RNA Bind-n-Seq; form: RNA; medium: in vitro; tested at: 365 nM; reference: no-protein control; direction: higher = stronger binding
Target: RNA binding protein fox-1 homolog 2, RRM domain, GST-SBP tag (RBFOX2, Homo sapiens, UniProt O43251-10, residues 100-194)
Setting: natural RNA segment, single round, ends assumed
| Sequence | RBNS enrichment (R) |
| --- | --- |
| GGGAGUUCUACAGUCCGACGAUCCCCACUGCACCGCCAUUUCUUCCCAGAUUUAUGUGUAUAACUUAAACUGGAAAAAAAGAAAAAGAAAAAUAUGACUAUUAGAUUUCCAGGUAUAGAACUGUGUUCUUUGAUGGAAUUCUCGGGUGCCAA | 0.459 |
| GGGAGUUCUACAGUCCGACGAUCUAACUAAAUCAUGACCAUCUGAUGCAAGAUGCAGUCAUAUCCAUGGUACUGAAAAUAACAUGAUGCUUGCUUGGAGUAUGAUGCUAUGUCACCCAAGUCACAGGAUGAUUUGGAAUUCUCGGGUGCCAA | 0.426 |
| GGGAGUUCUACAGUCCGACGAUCGCUGACCUCUUAGAGCCGCACAGAUGUGCUAGCCACCAAAAACCUCCUGUAACCAUGCAAGCCUGUAGUUGAGUGAUGACCAUACAUAUGGACAGGGUCCCCUCCUGCUGUGGAAUUCUCGGGUGCCAA | 1.06 |
| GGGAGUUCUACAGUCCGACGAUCGCCCUGCCAUCCCUUCUGUCUGCCAUGAGAGGGACUCUCUGAGUGUCGCCUGGCCCCACGUGUGGUGUUUUGUGUGUUCCUGCCUGGCCAAGGGAGGUGCCAAUGCUGGGUGGAAUUCUCGGGUGCCAA | 2.63 |
| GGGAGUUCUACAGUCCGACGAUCUCUGAUCCUGCUACUGGAGCUUAAAAUAACAAGUAAAGAAAAGUGUUAGAAACAAAGCUAAAAUUUUAACAUGAUUAAUAAUAGAGAAGUUGGGUUUGGUUCUGUUGUUAUGGAAUUCUCGGGUGCCAA | 0.734 |
| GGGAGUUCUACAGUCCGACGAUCUCCCUUCUUUACCUUCAUUUCAUCCUGUUGGCUGCUGCCACCAAAUCUGUCUAGAAUCCUGCUUUACAGGAUCAUGUAAAUGCUCAAAGAUGUAAUGUAGUUCUUUGUUCUGGAAUUCUCGGGUGCCAA | 0.642 |
| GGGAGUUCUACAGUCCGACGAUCACCAGGCAGGGAGCUUCCCCAGGAUAGUGUGGUGGAGUCAGGACUCACUCCAUCCUGCACUUUACCCACAGGACACCUGGAGGGUCCCCCAGCCCUGCUUGCUUUUGUGAUGGAAUUCUCGGGUGCCAA | 0.917 |

Block 2 — technique: aptamer microarray, sandwich; form: DNA with 2'F-ANA; medium: in vitro; tested at: 200 nM; together with: Cy3 exosite-II aptamer, 400 nM; direction: higher = stronger binding; sequence: GGTTGGTGTGGTTGG
Target: Prothrombin, mature alpha-thrombin (F2, Homo sapiens, UniProt P00734)
Setting: whole 15-mer aptamer, many near background
| Modification | mean fluorescence intensity [a.u.] |
| --- | --- |
| 2'F-ANA at 1 3 4 5 9 11 13 | 141 |
| 2'F-ANA at 2 6 7 8 11 13 14 | 127 |
| 2'F-ANA at 1 2 5 8 9 10 11 12 13 15 | 50.9 |
| 2'F-ANA at 2 4 7 8 9 10 11 12 | 179 |
| 2'F-ANA at 2 3 5 8 | 129 |
| 2'F-ANA at 1 2 3 5 6 8 12 14 15 | 48.8 |
| 2'F-ANA at 1 3 4 5 6 7 11 13 15 | 59.4 |

Block 3 — technique: universal PBM; form: double-stranded DNA, one strand shown; medium: in vitro; tested at: 600 nM; direction: higher = stronger binding
Target: Sal-like protein 4, full length isoform A (SALL4, Homo sapiens, UniProt Q9UJQ4, residues 1-1053)
UniProt Q9UJQ4, sequence (whole entry, looked up): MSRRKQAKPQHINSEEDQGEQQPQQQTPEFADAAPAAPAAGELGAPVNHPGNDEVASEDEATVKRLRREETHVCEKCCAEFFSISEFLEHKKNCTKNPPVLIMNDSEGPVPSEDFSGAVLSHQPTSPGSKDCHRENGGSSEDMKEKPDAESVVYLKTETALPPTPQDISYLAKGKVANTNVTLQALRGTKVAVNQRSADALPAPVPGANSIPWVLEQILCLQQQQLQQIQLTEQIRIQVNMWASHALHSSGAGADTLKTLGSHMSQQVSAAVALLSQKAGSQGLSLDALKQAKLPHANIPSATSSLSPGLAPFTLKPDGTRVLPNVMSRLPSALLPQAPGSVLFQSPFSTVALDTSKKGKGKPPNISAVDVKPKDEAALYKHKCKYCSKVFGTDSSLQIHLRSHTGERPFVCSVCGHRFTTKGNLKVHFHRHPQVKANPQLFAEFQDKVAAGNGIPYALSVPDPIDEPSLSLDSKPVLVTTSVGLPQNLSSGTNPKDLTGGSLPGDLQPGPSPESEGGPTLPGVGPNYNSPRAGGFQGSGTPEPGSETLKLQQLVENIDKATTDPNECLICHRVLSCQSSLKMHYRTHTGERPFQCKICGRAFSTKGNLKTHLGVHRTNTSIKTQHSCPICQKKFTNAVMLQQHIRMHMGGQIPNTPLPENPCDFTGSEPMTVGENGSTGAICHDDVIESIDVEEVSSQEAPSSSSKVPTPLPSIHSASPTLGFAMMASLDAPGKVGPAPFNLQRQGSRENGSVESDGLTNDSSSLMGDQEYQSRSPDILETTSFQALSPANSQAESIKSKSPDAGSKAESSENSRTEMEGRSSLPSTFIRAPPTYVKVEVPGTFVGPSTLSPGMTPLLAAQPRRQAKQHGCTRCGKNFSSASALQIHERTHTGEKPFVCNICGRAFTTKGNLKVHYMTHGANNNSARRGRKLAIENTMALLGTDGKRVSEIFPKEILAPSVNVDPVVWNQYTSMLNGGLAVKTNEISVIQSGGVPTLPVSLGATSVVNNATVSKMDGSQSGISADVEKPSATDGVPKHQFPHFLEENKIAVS
Setting: 8-mer, flanks averaged, mean of replicates
| Sequence | E-score |
| --- | --- |
| GGCAGACC | -0.348 |
| CATCCGTC | -0.00419 |
| AGGTCGGC | -0.227 |
| ATAGGAGG | 0.0131 |
| ATTTTCCG | 0.319 |
| ACTTCCAC | -0.181 |
| ACGGTATA | -0.06 |
| GCGCTTCC | -0.204 |
| CGCTTCCG | -0.249 |

Single results of other studies
| Substance | target | test | system | conditions | scale | measurement | result |
| --- | --- | --- | --- | --- | --- | --- | --- |
| PhoQ, residues 284 288 289 292 302 303 TSTLRA | PhoP, residues 12 14 15 18 19 LHATL (Escherichia coli, UniProt P23836) | Sort-seq, item: YFP reporter | E. coli | PhoQ-PhoP variant library, together with: 10 µM Mg2+ | reference: high Mg2+ state, higher = stronger signaling | fold induction | 2.04 |

For quick reference, copied from above (block 3):
| Sequence | E-score |
| --- | --- |
| AGGTCGGC | -0.227 |
| ATAGGAGG | 0.0131 |
| ATTTTCCG | 0.319 |
